Experimental data collected from several papers.
Numbered parts are unrelated; each lists some results of a single study. Substitutions count along the parent as printed.

Block 1
Target: Histone acetyltransferase KAT6A, both winged helices, GST fusion (KAT6A, Homo sapiens, UniProt Q92794, residues 1-181)
Technique: protein binding microarray
Form: double-stranded DNA, one strand shown
Matrix: in vitro
Concentration: not given
Notes: 8-mer, flanks averaged, mean of 2 arrays, mostly near background
Relative to: not given
Reading: higher = stronger binding
Residues (chain): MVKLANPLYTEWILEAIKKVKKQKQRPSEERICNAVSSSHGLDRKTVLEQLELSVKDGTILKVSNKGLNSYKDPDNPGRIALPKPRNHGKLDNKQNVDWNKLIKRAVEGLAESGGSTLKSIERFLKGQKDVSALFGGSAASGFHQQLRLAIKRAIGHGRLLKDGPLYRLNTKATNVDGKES
Oligonucleotide | E-score
TGATACCA | -0.0749
CCTAACTA | -0.065
CCAAGCAC | -0.116
CCCGGTGA | 0.144
ACCCGGGA | 0.195
CATCAGGC | -0.058
ATGCTGGA | -0.133
ATAACGCG | 0.285
CTCCACAC | -0.125
CCAAACAG | -0.214
CAAGATTC | -0.145
AAATATCA | -0.0887
AGTGGCCA | -0.173
GATTTCGC | 0.128
CCTCAAGC | -0.0637
AACCTTCA | -0.211
CACCCCGG | 0.0696
ACTTTGAG | -0.219
AGAAACAT | 0.0529
GGCATACC | -0.0258
GGGGTGAC | -0.115
ACAGAGTC | 0.0104
CGTACGCA | 0.262
CGTACCTC | -0.00982

Block 2
Target: CCND1, cyclin fold, Cln2 fusion (human)
Technique: yeast growth competition, sequencing
Matrix: yeast
Notes: strong parent motif
Relative to: not given
Reading: higher = stronger binding
Starting sequence: E2F2 docking peptide (human); LPAKRKLDLEGIG; partner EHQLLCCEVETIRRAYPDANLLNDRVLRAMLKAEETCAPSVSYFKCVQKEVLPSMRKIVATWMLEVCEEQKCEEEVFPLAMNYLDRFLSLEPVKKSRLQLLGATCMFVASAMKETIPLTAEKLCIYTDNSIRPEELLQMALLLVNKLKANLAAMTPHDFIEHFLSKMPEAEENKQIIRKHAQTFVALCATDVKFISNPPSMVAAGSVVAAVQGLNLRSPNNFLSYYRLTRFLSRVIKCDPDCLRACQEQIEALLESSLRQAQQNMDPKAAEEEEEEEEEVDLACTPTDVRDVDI
Substitution | normalised enrichment score
R5A | 0.527
K4A | 2.92
G11A | 0.235
L1A | 0.625
L7A | -0.107
I12A | 1.16
L9F | 4.53
R5A L7A | 0.202
R5K L9F | 0.644

Block 3
Target: Sal-like protein 4, full length isoform B (SALL4, Homo sapiens, UniProt Q9UJQ4-2, residues 1-616)
Technique: universal PBM
Form: double-stranded DNA, one strand shown
Matrix: in vitro
Concentration: not given
Notes: 8-mer, flanks averaged, mean of replicates
Reading: higher = stronger binding
Residues (chain): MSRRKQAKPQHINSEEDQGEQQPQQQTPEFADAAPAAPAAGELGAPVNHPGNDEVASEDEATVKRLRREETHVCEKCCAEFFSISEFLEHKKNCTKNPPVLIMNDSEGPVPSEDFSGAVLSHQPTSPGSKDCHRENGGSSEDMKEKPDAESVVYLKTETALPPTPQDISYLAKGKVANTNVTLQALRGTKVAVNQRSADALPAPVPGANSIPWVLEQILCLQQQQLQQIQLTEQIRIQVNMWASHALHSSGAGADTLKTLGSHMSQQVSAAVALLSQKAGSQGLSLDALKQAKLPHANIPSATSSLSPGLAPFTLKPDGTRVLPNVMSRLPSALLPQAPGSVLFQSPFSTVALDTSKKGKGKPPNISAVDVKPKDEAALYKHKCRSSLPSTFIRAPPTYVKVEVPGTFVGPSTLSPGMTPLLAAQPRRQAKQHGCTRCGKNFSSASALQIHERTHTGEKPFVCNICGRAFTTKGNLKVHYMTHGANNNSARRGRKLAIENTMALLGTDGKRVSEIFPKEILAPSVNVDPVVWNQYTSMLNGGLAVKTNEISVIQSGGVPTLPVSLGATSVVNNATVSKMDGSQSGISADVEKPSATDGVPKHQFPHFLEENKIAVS
Oligonucleotide | E-score
GTTTCCTA | 0.0873
CGCAGCAA | -0.147
CCACCAAC | -0.148
CCACTGGG | -0.308
GATAACAA | 0.228
ATCGCTAG | 0.00158
ATCTATTG | 0.235
AATTCCGA | 0.128
CTTTTTCC | -0.0183
AGACTGAT | -0.00294
CACACCAA | -0.00943
GCTCTCCA | -0.0769
ACGTCGGA | -0.123
CACTTGGA | 0.0424
CGAGAAAC | -0.085
GATGCAGA | -0.0603
ACGGCCCG | -0.215
TCAACTGA | 0.0245
CGGGGAAC | -0.203
GCAGTAAC | -0.0681
GCCGCGGC | -0.226
AGGCAGAC | -0.209
AAACTTGC | 0.156
CCATATGC | 0.0911
CACAGAGA | 0.00399

Block 4
Target: Interferon regulatory factor 7, full length, phosphomimetic (IRF7, Homo sapiens, UniProt Q92985, residues 1-503, S471D/S472D/S475D/S476D/S477D/S483D/S484D/S487D)
Technique: protein-binding microarray
Form: double-stranded DNA, one strand shown
Matrix: in vitro
Concentration: 2200 nM top
Notes: 60-bp whole probe
Added: salmon DNA 0.4 mg/ml
Relative to: random background probes
Reading: higher = stronger binding
Constant ends, left off below: GCCTAGCAC … GTCTTGATTCGCTTGACGCTGCTG
Target sequence (chain): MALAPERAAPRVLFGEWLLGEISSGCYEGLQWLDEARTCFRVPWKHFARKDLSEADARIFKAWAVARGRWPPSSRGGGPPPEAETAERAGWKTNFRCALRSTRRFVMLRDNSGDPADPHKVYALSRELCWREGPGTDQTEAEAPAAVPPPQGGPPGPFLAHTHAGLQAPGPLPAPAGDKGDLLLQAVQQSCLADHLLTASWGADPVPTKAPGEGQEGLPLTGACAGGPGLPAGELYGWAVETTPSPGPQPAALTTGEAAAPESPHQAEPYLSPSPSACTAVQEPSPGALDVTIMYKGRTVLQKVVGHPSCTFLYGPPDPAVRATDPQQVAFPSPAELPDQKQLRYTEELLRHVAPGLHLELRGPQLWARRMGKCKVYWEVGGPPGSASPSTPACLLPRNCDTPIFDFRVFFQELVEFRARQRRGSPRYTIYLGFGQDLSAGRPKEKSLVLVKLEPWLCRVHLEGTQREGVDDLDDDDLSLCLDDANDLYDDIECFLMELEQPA
Oligonucleotide | fitted relative affinity [z-score]
TTTTTTTTTGGAATGTCTTCGTGCTAG | 2.34
TTAGATTTCAGTTCCCATTAGTGCTAG | 2.26
CTCTCATTCCAATTCTTTTTGTGCTAG | 2.16
TACGATTTCAGTTCCGAGACGTGCTAG | 1.98
GACGGACTGGGGCTCGGGACGTGCTAG | -0.959
TACGGTATCGACTATCGGGACGTGCTA | 0.295
TCAGATTTTCCCATGAGACTGTGCTAG | 1.07
CTGAGATGCATTCTGGGCCCGTGCTAG | -0.379
TCAGATATCTTTTTCCTACTGTGCTAG | 1.08
TTAGATATCAGTATCGATGAGTGCTAG | -0.155
GATGGACTGGGTATCGGGACGTGCTAG | -0.806
GGTGTTTTCTAAACCATTGTGTGCTAG | 1.33
TCAGGTTTCGGTTCCGGTTAGTGCTAG | 11.5
GACGAACGGGGGTTTCGAGACGTGCTA | 1.94
TCATTTTTAATGAATGAAACTGTGCTA | -0.155
GACGGTATGGGTATCGGGACGTGCTAG | -0.483
TTAGATTGCAGTTTCGATTAGTGCTAG | 5.2
CACGGTTTCCTACTGCTGACGTGCTAG | 2.41
TTAGGTATGCTTATCCTTTAGTGCTAG | 0.552

Block 5
Target: RING finger protein unkempt homolog, zinc fingers 1-6, GST-SBP tag (UNK, Homo sapiens, UniProt Q9C0B0, residues 30-357)
Technique: RNA Bind-n-Seq
Form: RNA
Matrix: in vitro
Concentration: not given
Notes: RNA with constant flanks, human and mouse sites, ends assumed
Relative to: input RNA pool
Reading: higher = stronger binding
Construct (chain): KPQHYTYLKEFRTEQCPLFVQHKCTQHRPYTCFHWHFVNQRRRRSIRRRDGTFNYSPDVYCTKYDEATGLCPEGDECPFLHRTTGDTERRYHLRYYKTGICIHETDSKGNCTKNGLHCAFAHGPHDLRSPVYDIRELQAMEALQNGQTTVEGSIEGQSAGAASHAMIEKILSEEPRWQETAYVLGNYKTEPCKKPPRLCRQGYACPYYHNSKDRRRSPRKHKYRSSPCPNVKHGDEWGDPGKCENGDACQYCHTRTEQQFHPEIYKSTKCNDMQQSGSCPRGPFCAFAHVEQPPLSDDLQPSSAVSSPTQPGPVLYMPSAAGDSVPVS
Oligonucleotide | bound/input enrichment
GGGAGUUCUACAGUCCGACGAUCUCAGACUGUACCAUUGUGAUUUAGACCUAUCUAAAAUUCAGAGCAUAUCAUCUGGGCUACCUCAGGGUCACCACCCAUGUAUUGGGCUUAGUCAGGAUUGACAGAUACAUUCUCAGCUGGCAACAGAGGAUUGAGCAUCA | 0.219 ratio
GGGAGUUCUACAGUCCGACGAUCGCAAAGCAAAUUUAUGAAGAAUUCAUCCAGACAGAGGCCCCUAAAGAGGUGAACAUUGACCACUUCACUAAAGACAUCACCAUGAAGAACCUGGUGGAACCGUCUCCUCGCAGCUUUGACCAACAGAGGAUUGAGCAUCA | 0.239 ratio
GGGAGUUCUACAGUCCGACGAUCGUGAUUAUUGAAGAAUCUAAGCCAGAAAAAGUCAAGGUGAUGUUAGAGAAGUUUGUUGAAGAAUGCAAGUUUCCCCCAGUGCCAGAUGCUGUUUGUUGCUAUCAGAAGUGCCGUGGAUAUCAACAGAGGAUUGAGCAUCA | 0.37 ratio
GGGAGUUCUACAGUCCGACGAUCGGGGGCGGAGCCACAGGGUGGUGGGCUGUGUAUGUGUGUUUGUAUGUGUUUGGUCGCGUGUUGGUUAAGUCGUGUUGCUGGAAUACCGAGGAGAGGCGGAGGCGGAAGGCGGGGGCGGUCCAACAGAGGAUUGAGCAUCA | 0.661 ratio
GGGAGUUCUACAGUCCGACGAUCCCUCCAUUUGUUACGUGAGAGAAUGCGUCUGCUGAUCACUGAAGUGUCCCUUUUAGCUUCUGAUUCAUUGGGUUCUGUUGGGCAUCUUUAAAUCCACCUUAACCUGAGGAAUGUAUGUGGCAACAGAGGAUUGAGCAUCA | 0.119 ratio
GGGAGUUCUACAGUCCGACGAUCGCAGAUUUCUGUGCAUCGUGCUGUGAACCUCUGAUGACCCUAAAGUUAUCUAUGUUCUCCUUAGUGGAAUAUUUCCUUUUGAGAGAUUGUAUAUUUUAAAAUACUGUCUAGAGUUUAUGACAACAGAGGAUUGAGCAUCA | 1.4 ratio
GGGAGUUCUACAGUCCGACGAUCACACAGCUGGUUUCGAAGAGUCUUGCCUACAUCGAACGUGAUGUUUAUCGACCAAAAUUUUUAUCUAAAACAGUGAGAAUUACCUUUGGAUUCAACUGCAGAAAUAAAGAUCAUUAUGGGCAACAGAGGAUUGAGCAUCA | 0.163 ratio
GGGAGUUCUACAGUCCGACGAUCCAGGCAGCUUUGGAAUUUCAUGGUGUGGCCCAAGAUUUGUCUCAGCAGUUGGACGGCUUAUUAGGGAUGUUGUGCGUAGAUGUAGCACCAGCUGAUGGAGCAUCGAUUCAGCAAACUUUACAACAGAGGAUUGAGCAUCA | 0.497 ratio
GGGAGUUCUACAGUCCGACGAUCUUCCAGCGCAGCUCCUCCCUUGUUCAACACCAGCGAAUUCACACUGGAGAGAAACCCUAUCGAUGUAAUCUAUGUGGGAGGUCCUUUAGGCAUGGCACAUCCCUCACUCAACACGAGGUCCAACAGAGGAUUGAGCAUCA | 0.152 ratio
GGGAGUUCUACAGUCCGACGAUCCAGGGCAAGCAGCCCAUCGGGCCGGAGGAUGUGCUGGGGCUGCAGCGGAUCACGGGUGACUACCUGUGCUCCCCUGAGGAAAAUAUCUACAAGAUUGACUUCGUCAGGUUCAAGAUCCGUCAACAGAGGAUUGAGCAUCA | 0.0529 ratio
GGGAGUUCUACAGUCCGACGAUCCCUUUCUUAGCAGUUAACCGAGAGCGGCGCCUCCCUCCGCGAGGAAACGGCAGCGUGUGCUGUAGCGUGGGUAUGGCCGACUACUCCACAGUGCCUCCGCCGUCGUCUGGCUCGGCUGGCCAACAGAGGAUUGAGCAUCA | 0.3 ratio

Repeated from above (block 2):
Substitution | normalised enrichment score
R5A | 0.527
K4A | 2.92
G11A | 0.235
L1A | 0.625
L7A | -0.107
I12A | 1.16
L9F | 4.53
R5A L7A | 0.202
R5K L9F | 0.644
